{"data": "Earlier results as cited in several papers", "note": "Each line is one published result; not all experiments were run side by side.", "UniProt Q6XUX3, sequence (whole entry, looked up)": "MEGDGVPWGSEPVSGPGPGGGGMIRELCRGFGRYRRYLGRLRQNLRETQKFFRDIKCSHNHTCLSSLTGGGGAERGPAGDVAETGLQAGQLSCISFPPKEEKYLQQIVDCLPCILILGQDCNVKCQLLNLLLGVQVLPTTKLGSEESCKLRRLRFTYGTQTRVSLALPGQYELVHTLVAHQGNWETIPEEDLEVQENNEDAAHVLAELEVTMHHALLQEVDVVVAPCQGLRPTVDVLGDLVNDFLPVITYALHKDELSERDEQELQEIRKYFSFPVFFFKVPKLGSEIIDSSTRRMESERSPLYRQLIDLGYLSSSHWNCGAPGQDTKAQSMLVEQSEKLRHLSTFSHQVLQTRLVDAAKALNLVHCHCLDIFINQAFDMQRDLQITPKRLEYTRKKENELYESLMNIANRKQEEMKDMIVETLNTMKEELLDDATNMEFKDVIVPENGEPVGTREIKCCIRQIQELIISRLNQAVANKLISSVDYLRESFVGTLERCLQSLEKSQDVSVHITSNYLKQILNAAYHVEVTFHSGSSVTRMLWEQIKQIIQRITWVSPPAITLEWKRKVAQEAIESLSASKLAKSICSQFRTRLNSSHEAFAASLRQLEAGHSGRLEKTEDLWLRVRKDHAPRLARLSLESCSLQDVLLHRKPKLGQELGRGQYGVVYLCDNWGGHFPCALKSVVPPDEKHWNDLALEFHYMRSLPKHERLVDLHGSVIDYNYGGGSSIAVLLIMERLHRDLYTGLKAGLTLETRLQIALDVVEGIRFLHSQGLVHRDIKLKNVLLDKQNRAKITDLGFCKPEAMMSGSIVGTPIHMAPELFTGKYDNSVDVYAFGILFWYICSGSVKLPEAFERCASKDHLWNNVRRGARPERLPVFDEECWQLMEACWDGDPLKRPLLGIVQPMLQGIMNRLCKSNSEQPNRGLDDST"}
{"Structure (SMILES)": "COc1cc2nccc(Oc3ccc(NC(=O)C4(C(=O)Nc5ccc(F)cc5)CC4)cc3)c2cc1OC", "system": "cancer patients, real-world", "measurement": "patients requiring dose hold", "result": "≤ 83%"}
{"Structure (SMILES)": "CO[C@@H](C)Cn1c(=O)n(C)c2cnc3ccc(-c4cncc(C(C)(C)O)c4)cc3c21", "test": "measured: fatigue", "system": "cancer patients", "conditions": "dose not given, monotherapy", "measurement": "patients with related adverse event", "result": "36.5%"}
{"Structure (SMILES)": "CC1(C)CCC2(CC1)N[C@@H](C(=O)N[C@@H]1CC[C@@H](C(N)=O)OC1)[C@H](c1ccnc(Cl)c1F)[C@]21C(=O)Nc2cc(Cl)ccc21", "system": "patients with solid tumours or lymphomas", "conditions": "dose not given, grade ≥3, first-in-human trials", "measurement": "patients with related neutropenia", "result": "12%"}
{"Structure (SMILES)": "Nc1cc(C(F)(F)F)c(-c2nc(N3CCOCC3)nc(N3CCOCC3)n2)cn1", "tested on": "DSTYK (Homo sapiens, UniProt Q6XUX3)", "test": "enzyme activity", "conditions": "10 µM", "scale": "baseline: untreated", "measurement": "remaining activity", "result": "98%"}
{"Structure (SMILES)": "CCN1[C@@H](C(=O)NC23CCC(C(=O)O)(CC2)CC3)[C@H](c2cccc(Cl)c2F)[C@]2(C(=O)Nc3cc(Cl)ccc32)C12CCCCC2", "system": "patients with solid tumours or lymphomas", "conditions": "dose not given, grade ≥3, first-in-human trials", "measurement": "patients with related neutropenia", "result": "10%"}
{"Structure (SMILES)": "CC(C)C[C@H](NC(=O)[C@H](Cc1ccccc1)NC(=O)c1cnccn1)B(O)O", "system": "newly diagnosed multiple myeloma patients", "conditions": "dose not given", "measurement": "patients with peripheral neuropathy", "result": "≤ 64%"}
{"Structure (SMILES)": "COc1ccc(CN2C3CC2CN(c2ccc(-c4cc(OCC(C)(C)O)cn5ncc(C#N)c45)cn2)C3)cn1", "system": "RET-positive thyroid cancer patients", "conditions": "dose not given", "measurement": "patients with dose reduction", "result": "30%"}
{"Structure (SMILES)": "Nc1ccn([C@@H]2O[C@H](CO)[C@@H](O)C2(F)F)c(=O)n1", "system": "pancreatic cancer patients", "conditions": "dose not given", "measurement": "patients with dose delay", "result": "12.5%"}
{"Structure (SMILES)": "COc1cc(C(=O)O)ccc1NC(=O)[C@@H]1N[C@@H](CC(C)(C)C)[C@](C#N)(c2ccc(Cl)cc2F)[C@H]1c1cccc(Cl)c1F", "system": "patients with solid tumours or lymphomas", "conditions": "dose not given, grade ≥3, first-in-human trials", "measurement": "patients with related neutropenia", "result": "21%"}
{"Structure (SMILES)": "CNC(=O)c1ccc(Nc2ncc(C(F)(F)F)c(NCc3nccnc3N(C)S(C)(=O)=O)n2)cc1", "system": "patients with KRAS mutant NSCLC", "conditions": "dose not given", "scale": "baseline: patients", "measurement": "patients with related adverse events", "result": "76%"}
{"note": "For quick reference, copied from above:"}
{"Structure (SMILES)": "CO[C@@H](C)Cn1c(=O)n(C)c2cnc3ccc(-c4cncc(C(C)(C)O)c4)cc3c21", "test": "measured: fatigue", "system": "cancer patients", "conditions": "dose not given, monotherapy", "measurement": "patients with related adverse event", "result": "36.5%"}
{"Structure (SMILES)": "CC1(C)CCC2(CC1)N[C@@H](C(=O)N[C@@H]1CC[C@@H](C(N)=O)OC1)[C@H](c1ccnc(Cl)c1F)[C@]21C(=O)Nc2cc(Cl)ccc21", "system": "patients with solid tumours or lymphomas", "conditions": "dose not given, grade ≥3, first-in-human trials", "measurement": "patients with related neutropenia", "result": "12%"}
